Assay results of several laboratories.
pIC50, pKd, pKi: −log10 of the molar value.
Target: Carbonic anhydrase 2 (CA2, Homo sapiens, UniProt P00918)

CN(C)c1ccc2c3c(cccc13)C(=O)N(CCc1ccc(S(N)(=O)=O)cc1)C2=O
pKd (binding): 6.85

Cc1cc(=O)oc2cc(OCCCCCCSC#N)ccc12
pKi (enzyme activity, inhibitor, stopped-flow): < 4.00

CCCCCCC(=O)N[C@H]1CCOC1=O
pKi (enzyme activity, inhibitor, stopped-flow): 4.12

CC[C@H](C)[C@H](N)C(=O)NS(=O)(=O)CC(=O)N[C@]1(C(=O)O)[C@@H]2CN(C)C=C(C(N)=O)[C@@H]2C[C@@H]1O
pIC50 (enzyme activity, inhibitor, absorbance): 6.00

NS(=O)(=O)c1nnc(N2C(=O)c3cccc4c(N5CCOCC5)ccc(c34)C2=O)s1
pKd (binding): 6.77

O=C1CCCCO1
pKi (enzyme activity, inhibitor, stopped-flow): 4.21

CN1C=C(C(N)=O)[C@@H]2C[C@H](O)[C@@](NC(=O)CS(N)(=O)=O)(C(=O)O)[C@@H]2C1
pIC50 (enzyme activity, inhibitor, absorbance): 5.00

N#C[Se]CCCCCCOc1ccc2c(-c3ccccc3)cc(=O)oc2c1
pKi (enzyme activity, inhibitor, stopped-flow): < 4.00

Some of these lines once more:
NS(=O)(=O)c1nnc(N2C(=O)c3cccc4c(N5CCOCC5)ccc(c34)C2=O)s1
pKd (binding): 6.77
